Results gathered from unrelated publications.
Each numbered part is a random draw from the data of one study; scales do not carry over between parts. Positions count from the first letter of the parent shown.

Study 1
Target: Prothrombin, mature alpha-thrombin (F2, Homo sapiens, UniProt P00734)
Technique: aptamer microarray, sandwich
Molecule type: DNA with 2'F-ANA
Medium: in vitro
Concentration: 200 nM
Setting: whole 15-mer aptamer, many near background
Added: Cy3 exosite-II aptamer, 400 nM
Direction: higher = stronger binding
Oligonucleotide: GGTTGGTGTGGTTGG
Modification | mean fluorescence intensity
2'F-ANA at 3 4 7 9 12 14 15 | 326 a.u.
2'F-ANA at 1 2 4 5 6 9 12 13 | 72.4 a.u.
2'F-ANA at 3 4 5 6 11 13 15 | 60.9 a.u.
2'F-ANA at 1 2 3 5 7 11 13 14 15 | 46.7 a.u.
2'F-ANA at 6 7 8 9 11 12 15 | 602 a.u.
2'F-ANA at 1 3 4 7 9 11 12 15 | 297 a.u.
2'F-ANA at 1 2 3 8 10 11 13 | 63.1 a.u.
2'F-ANA at 1 5 6 7 8 10 11 12 | 63 a.u.
2'F-ANA at 3 4 6 7 8 10 14 15 | 235 a.u.
2'F-ANA at 1 2 5 6 8 9 10 13 | 66.4 a.u.
2'F-ANA at 1 2 5 8 10 11 12 | 52.7 a.u.
2'F-ANA at 6 11 12 14 15 | 213 a.u.
2'F-ANA at 1 2 3 6 8 10 12 | 82.6 a.u.
2'F-ANA at 1 4 8 13 14 | 53.6 a.u.
2'F-ANA at 1 2 3 4 5 7 8 9 10 | 47.4 a.u.
2'F-ANA at 1 2 4 8 10 13 15 | 53.8 a.u.
2'F-ANA at 3 6 12 13 14 | 577 a.u.
2'F-ANA at 1 2 3 5 6 7 8 9 10 11 15 | 72.3 a.u.
2'F-ANA at 1 5 6 11 14 | 75.8 a.u.
2'F-ANA at 2 3 4 6 7 11 12 | 703 a.u.
2'F-ANA at 1 2 5 7 8 9 10 11 12 13 | 272 a.u.
2'F-ANA at 1 6 7 8 12 14 | 91.6 a.u.
2'F-ANA at 2 4 6 14 15 | 90.6 a.u.

Study 2
Target: Centromere-binding protein 1, full length, N-terminal tag (CBF1, Saccharomyces cerevisiae, UniProt P17106, residues 1-351)
UniProt P17106, sequence (whole entry, looked up): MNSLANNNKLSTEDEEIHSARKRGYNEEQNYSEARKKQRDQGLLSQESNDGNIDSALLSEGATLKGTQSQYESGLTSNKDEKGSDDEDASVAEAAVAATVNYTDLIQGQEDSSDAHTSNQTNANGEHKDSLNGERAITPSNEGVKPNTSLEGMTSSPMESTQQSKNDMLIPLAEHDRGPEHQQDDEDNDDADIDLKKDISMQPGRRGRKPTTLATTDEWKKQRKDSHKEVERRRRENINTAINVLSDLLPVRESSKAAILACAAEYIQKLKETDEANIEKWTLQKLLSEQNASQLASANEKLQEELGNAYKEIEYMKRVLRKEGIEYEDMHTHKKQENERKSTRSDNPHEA
Technique: protein-binding microarray
Molecule type: double-stranded DNA, one strand shown
Medium: in vitro
Concentration: 0.8 µM
Setting: whole 60-bp probe, no competitor
Direction: higher = stronger binding
Shared flanks, not repeated: … GTCTTGATTCGCTTGACGCTGCTG
Oligonucleotide | fluorescence intensity [a.u.]
GAAAGATGTCGATGACGTGTGTAGCGTAAAAATTAG | 562
GAAGACCCTGAACGTGACCGTCCATCATGAATTTAG | 2230
TGTACGAAGCTATTTCTGATGACTATAGTAGTTAGG | 544
GAAGTACCAAGACTTCACGGGATTGAAATCGGATAG | 640
CTAAATATTTTAGGTGACACTGCCACTTTATTGTTC | 516
CTACAGGAAAAGAAGATGGTGACATATGCTTAGTTC | 569
CCTAACTACTATAAATACCTGATATAGCTTCGTACA | 499
GAAGAGGAAAATAGGCACATGATTCCTTTTCACTAG | 1370
CTAAAACAAAGGCTGCATGCGATAATACACCCTTTC | 503
GAACTAGTTTATTATCACGTGCGGTGTAAGAAGTAG | 10700
GAAATAATTTAAAGATTCGTGCTTCTGGTATTCTAG | 511
GAACAGGGAGTTCATCATCAGAATGATTAGTATTAG | 527
GAAAAGCGTCTGAACCACATGCTTCTTCTATCTTAG | 606
CCTAACTACTATAGCCACATGCGATAGCTTCGTACA | 567
GAATATCTCTAGTATAACGTGCCGTATATTTCCTAG | 743
CTACATCAACACTTCAACAACACGTGTCTGTGATTC | 9090

Study 3
Target: CCNE2, cyclin fold, Cln2 fusion (human)
Technique: yeast growth competition, sequencing
Medium: yeast
Setting: strong parent motif
Baseline: not given
Direction: higher = stronger binding
Starting sequence: RBL1 docking peptide (human); GSAKRRLFGEDPP
Substitution | normalised enrichment score
WSAKRRLFGEDPP [G1W] | 3.88
GSAKRRFFGEDPP [L7F] | 0.769
GSAKRRLFGERPP [D11R] | 2.33
GSAVRRLFGEDPP [K4V] | 4.77
GSEKRRLFGEDPP [A3E] | 0.988
GSAKRRLFGEDPY [P13Y] | 3.65
GSAKYRLFGEDPP [R5Y] | 0.687
GWAKRRLFGEDPP [S2W] | 1.46
GSAKRYLFGEDPP [R6Y] | 0.555
GSAKRRLFFEDPP [G9F] | 5.38
GCAKRRLFGEDPP [S2C] | 4.81
GSAKSRLFGEDPP [R5S] | 0.483
GSAKRRLFGEDVP [P12V] | 3.98
GSAKFRLFGEDPP [R5F] | 0.199
GSYKRRLFGEDPP [A3Y] | 3.4
GSAERRLFGEDPP [K4E] | -0.274
GSAKRGLFGEDPP [R6G] | -0.197
GSQKRRLFGEDPP [A3Q] | 0.255
GMAKRRLFGEDPP [S2M] | 3.07
GSAKRRLVGEDPP [F8V] | 0.676
GSAKRLLFGEDPP [R6L] | 0.71
GSAKRRLFGNDPP [E10N] | 4.2
ISAKRRLFGEDPP [G1I] | 4.88

Study 4
Target: Interferon regulatory factor 7, full length, phosphomimetic (IRF7, Homo sapiens, UniProt Q92985, residues 1-503, S101K/S471D/S472D/S475D/S476D/S477D/S483D/S484D/S487D)
Technique: protein-binding microarray
Molecule type: double-stranded DNA, one strand shown
Medium: in vitro
Concentration: 250 nM
Setting: 60-bp whole probe
Added: salmon DNA 0.4 mg/ml
Baseline: random background probes
Direction: higher = stronger binding
Shared flanks, not repeated: GCCTAGCAC … GTCTTGATTCGCTTGACGCTGCTG
Construct (chain): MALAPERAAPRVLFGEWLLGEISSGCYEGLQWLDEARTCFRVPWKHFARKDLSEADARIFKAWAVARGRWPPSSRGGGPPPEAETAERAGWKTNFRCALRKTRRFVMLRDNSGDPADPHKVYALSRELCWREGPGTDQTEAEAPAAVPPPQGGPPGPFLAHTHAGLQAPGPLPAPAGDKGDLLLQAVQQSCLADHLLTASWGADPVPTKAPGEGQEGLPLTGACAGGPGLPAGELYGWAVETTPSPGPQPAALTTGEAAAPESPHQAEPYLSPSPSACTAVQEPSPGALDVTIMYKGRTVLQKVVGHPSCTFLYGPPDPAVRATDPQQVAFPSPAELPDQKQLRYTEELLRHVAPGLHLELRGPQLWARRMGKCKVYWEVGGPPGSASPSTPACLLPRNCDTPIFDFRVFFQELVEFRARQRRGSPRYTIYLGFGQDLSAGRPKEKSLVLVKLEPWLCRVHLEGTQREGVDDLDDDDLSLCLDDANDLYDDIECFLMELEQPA
Oligonucleotide | log fluorescence
GACGATTTCAGTTTCGAGACGTGCTAG | 4.87 z-score
TCATTTGTCCCTATTTAACTGTGCTAG | 3.85 z-score
TCAGTATTTTTTCTGAAACTGTGCTAG | 0.632 z-score
TTAGGTATCGATTATCGGTTAGTGCTA | 1.77 z-score
GACGATTCCGGTTTCGGGACGTGCTAG | 4.22 z-score
GCCGGTTTCCTTATCCTGACGTGCTAG | 4.08 z-score
TCACTTCTAGACTTCTCACTGTGCTAG | 0.826 z-score
GATGGTATCGACTATCGGGACGTGCTA | -0.204 z-score
GACGATATCTGGTATCGAGACGTGCTA | 0.0876 z-score
CTAGAACTGAGACTGGATTAGTGCTAG | 0.191 z-score
TTAGGTTTCGAGACTGGGTTAGTGCTA | 4.6 z-score
TTAGGTTTCAACTATCGGTTAGTGCTA | 0.672 z-score
GACGGGATCGGGACTGGGGACGTGCTA | -0.502 z-score
GACGGACTGGGGTAGCGGGACGTGCTA | -0.795 z-score
TTAGGACGGGGGTATCGGTTAGTGCTA | 2.53 z-score
TTAAAAAAAAAAAACTGTAACGTGCTA | 0.19 z-score
GACGATTTCAGTCTCGAGAAGTGCTAG | 0.423 z-score
TTAGTTCTCAGTTTCGATTAGTGCTAG | 8.76 z-score
CCCTATTTAAGGCTAGGCACGTGCTAG | 1.59 z-score
GGATGACTCCCTCTCTGGCCGTGCTAG | -0.423 z-score

Study 5
Target: Histone acetyltransferase KAT6A, winged helix 1, GST fusion (KAT6A, Homo sapiens, UniProt Q92794, residues 1-85)
Technique: protein binding microarray
Molecule type: double-stranded DNA, one strand shown
Medium: in vitro
Concentration: not given
Setting: 8-mer, flanks averaged, mean of 2 arrays, mostly near background
Baseline: not given
Direction: higher = stronger binding
Target sequence (chain): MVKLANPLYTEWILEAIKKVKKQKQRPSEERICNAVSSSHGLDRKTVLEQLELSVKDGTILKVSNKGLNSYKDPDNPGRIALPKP
Oligonucleotide | E-score
CAAGTCAC | -0.0264
GGACAAAC | -0.0933
AAGAGTCT | -0.176
ATATCGGG | 0.123
GAAAAGTC | -0.136
AGTATGTA | -0.103
ACCCTCGA | -0.143
CGCTATTC | 0.235
GTACTGCA | -0.0533
GACTTCGC | 0.0292
ATAGTCTC | 0.0147
CCATGTCG | -0.0896
ACCACGAT | -0.292
CTCCCTTA | -0.224
CGACAATA | 0.0612
CACATGTC | -0.0675
AAGGCAGA | -0.24
ACGATACG | 0.0211
AAATTCCT | -0.106
CATTGCAA | -0.119
AGCTCTCG | -0.0269
AGTGGGCA | -0.221
AATCCATC | -0.245

Study 6
Target: ABI1, truncated, D143A, DHFR fusion (Arabidopsis thaliana)
Technique: DHFR PCA, deep sequencing
Medium: yeast
Setting: methotrexate growth selection, single substitutions
Added: (+)-ABA 200 µM
Baseline: wild-type fitted maximum
Direction: higher = stronger binding
Starting sequence: PYL1, truncated, DHFR fusion (Arabidopsis thaliana); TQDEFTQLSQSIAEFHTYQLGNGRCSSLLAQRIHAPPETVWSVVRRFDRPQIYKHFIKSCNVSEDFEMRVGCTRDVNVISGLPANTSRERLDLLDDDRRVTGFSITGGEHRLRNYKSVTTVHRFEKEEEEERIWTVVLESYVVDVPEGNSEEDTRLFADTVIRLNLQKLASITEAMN; partner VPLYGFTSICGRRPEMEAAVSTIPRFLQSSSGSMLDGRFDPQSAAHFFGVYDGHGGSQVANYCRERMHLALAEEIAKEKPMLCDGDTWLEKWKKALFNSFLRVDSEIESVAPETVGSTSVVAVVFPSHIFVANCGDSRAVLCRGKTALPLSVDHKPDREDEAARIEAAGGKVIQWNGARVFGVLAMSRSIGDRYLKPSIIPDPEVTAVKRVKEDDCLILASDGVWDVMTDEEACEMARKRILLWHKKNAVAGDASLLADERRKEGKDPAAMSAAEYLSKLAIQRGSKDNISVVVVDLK
Substitution | relative binding score [%]
N61A | 104
L8A | 80
K54D | 4.99
S150G | 83.7
E128Y | 98.1
T106C | 103
Q10S | 99.9
S27C | 74.2
V142F | 70.8
V44N | -18.4
H122M | 37.6
K116I | 40.3
Y115V | -5.02
A170K | 104
V43W | 36.7

A few entries again (study 2):
Oligonucleotide | fluorescence intensity [a.u.]
GAAAAGCGTCTGAACCACATGCTTCTTCTATCTTAG | 606
GAAAGATGTCGATGACGTGTGTAGCGTAAAAATTAG | 562
GAAGAGGAAAATAGGCACATGATTCCTTTTCACTAG | 1370
GAATATCTCTAGTATAACGTGCCGTATATTTCCTAG | 743
GAACTAGTTTATTATCACGTGCGGTGTAAGAAGTAG | 10700
CTACATCAACACTTCAACAACACGTGTCTGTGATTC | 9090
CTAAATATTTTAGGTGACACTGCCACTTTATTGTTC | 516
GAACAGGGAGTTCATCATCAGAATGATTAGTATTAG | 527
TGTACGAAGCTATTTCTGATGACTATAGTAGTTAGG | 544
CTAAAACAAAGGCTGCATGCGATAATACACCCTTTC | 503
CCTAACTACTATAGCCACATGCGATAGCTTCGTACA | 567
CCTAACTACTATAAATACCTGATATAGCTTCGTACA | 499
GAAATAATTTAAAGATTCGTGCTTCTGGTATTCTAG | 511
GAAGACCCTGAACGTGACCGTCCATCATGAATTTAG | 2230
CTACAGGAAAAGAAGATGGTGACATATGCTTAGTTC | 569
GAAGTACCAAGACTTCACGGGATTGAAATCGGATAG | 640
